Assay results collected from several papers.
A part holds a random share of what one study measured.
UniProt Q9H3N8, sequence (whole entry, looked up): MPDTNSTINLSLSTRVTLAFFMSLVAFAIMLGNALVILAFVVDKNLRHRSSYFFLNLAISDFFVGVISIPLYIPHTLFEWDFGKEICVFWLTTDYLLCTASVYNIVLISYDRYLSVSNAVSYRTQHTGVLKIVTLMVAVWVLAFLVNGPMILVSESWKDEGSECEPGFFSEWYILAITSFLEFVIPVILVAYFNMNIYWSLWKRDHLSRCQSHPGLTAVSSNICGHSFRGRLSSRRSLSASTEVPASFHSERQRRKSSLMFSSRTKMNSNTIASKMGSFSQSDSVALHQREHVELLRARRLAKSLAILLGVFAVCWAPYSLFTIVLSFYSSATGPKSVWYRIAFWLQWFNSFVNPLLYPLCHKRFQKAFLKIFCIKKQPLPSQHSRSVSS

Block 1
Target: Tyrosine-protein kinase JAK2 (JAK2, Homo sapiens, UniProt O60674)
UniProt O60674, sequence (whole entry, looked up): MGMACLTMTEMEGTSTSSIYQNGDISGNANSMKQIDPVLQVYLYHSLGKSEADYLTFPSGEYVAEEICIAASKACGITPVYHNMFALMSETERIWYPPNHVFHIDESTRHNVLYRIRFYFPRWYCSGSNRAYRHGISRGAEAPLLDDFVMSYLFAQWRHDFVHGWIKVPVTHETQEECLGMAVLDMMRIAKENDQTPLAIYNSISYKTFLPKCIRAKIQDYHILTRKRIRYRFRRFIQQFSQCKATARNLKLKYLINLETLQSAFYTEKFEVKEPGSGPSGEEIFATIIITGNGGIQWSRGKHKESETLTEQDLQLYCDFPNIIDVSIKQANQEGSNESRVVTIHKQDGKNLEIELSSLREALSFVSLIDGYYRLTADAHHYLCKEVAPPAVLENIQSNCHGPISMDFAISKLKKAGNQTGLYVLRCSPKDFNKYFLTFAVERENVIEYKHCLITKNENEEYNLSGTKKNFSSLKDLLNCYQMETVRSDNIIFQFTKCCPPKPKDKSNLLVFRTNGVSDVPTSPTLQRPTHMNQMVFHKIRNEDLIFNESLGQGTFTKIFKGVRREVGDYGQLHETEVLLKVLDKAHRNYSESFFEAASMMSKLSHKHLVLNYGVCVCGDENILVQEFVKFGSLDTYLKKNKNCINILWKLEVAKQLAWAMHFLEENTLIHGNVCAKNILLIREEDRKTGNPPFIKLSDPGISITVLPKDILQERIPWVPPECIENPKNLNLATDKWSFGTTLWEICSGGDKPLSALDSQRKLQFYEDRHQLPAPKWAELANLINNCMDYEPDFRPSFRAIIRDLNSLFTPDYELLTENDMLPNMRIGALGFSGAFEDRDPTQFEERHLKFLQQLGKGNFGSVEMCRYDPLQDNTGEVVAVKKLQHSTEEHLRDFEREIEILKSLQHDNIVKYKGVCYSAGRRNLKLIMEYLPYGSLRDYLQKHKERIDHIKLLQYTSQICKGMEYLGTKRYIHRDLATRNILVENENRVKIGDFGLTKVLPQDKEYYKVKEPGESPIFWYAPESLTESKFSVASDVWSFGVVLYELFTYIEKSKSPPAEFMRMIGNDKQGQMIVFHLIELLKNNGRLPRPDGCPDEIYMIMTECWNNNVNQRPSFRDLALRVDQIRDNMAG
Read-out: enzyme activity
Action: inhibitor
Concentration: 0.5 µM
Reference: control
With `O=C1NC(=O)c2c1c1c3ccccc3[nH]c1c1[nH]c3cc(Br)ccc3c21` the remaining activity was 95.8%.
`O=Nc1c(-c2c(O)[nH]c3cc(Br)ccc23)[nH]c2ccccc12` has a remaining activity of 93.8%.
With `Oc1cccc(-c2nc(N3CCOCC3)c3oc4ncccc4c3n2)c1` the remaining activity was 92.6%.
`O=c1cc(N2CCOCC2)oc2c(-c3ccccc3)cccc12` has a remaining activity of 95.1%.
`O=C1Cc2c([nH]c3ccc(Br)cc23)-c2ccccc2N1` has a remaining activity of 102%.
`CN(C)S(=O)(=O)c1ccc2c(c1)/C(=C/c1cc3c([nH]1)CCCC3)C(=O)N2` has a remaining activity of 46.1%.
With `c1ccc2c(-c3ccncc3)c[nH]c2c1` the remaining activity was 93.8%.
`Cc1cc(Nc2cc(N3CCN(C)CC3)nc(Sc3ccc(NC(=O)C4CC4)cc3)n2)[nH]n1` gave a remaining activity of 75.5%.
For `CCCNC(=O)Nc1ccc(Oc2ncnc3cc(OC)c(OC)cc23)cc1Cl`, the remaining activity was 96.9%.
`O=C1Nc2ccccc2/C1=C\c1c(Cl)[nH]c2ccccc12` has a remaining activity of 103%.
`COc1ccc2c(c1)c(C1=C(c3c[nH]c4ccccc34)C(=O)NC1=O)cn2CCCN(C)C` gave a remaining activity of 97.5%.

Block 2
SMILES: CC(C)n1cnc(-c2ccc(F)cc2)c1-c1ncc(C(=O)Nc2ccc(N3CCN(C)CC3)cc2)[nH]1
Technique: Phase 2a trial
Species: idiopathic pulmonary fibrosis patients
The “patients with adverse events” was 0% (refers to: blood alkaline phosphatase increased; 30 mg once daily, grade 3 maximum intensity).
The “patients with adverse events” was 0% (refers to: chest discomfort; 60 mg once daily, grade 3 maximum intensity).
It gave 0% for “patients with adverse events” (refers to: blood alkaline phosphatase increased; 30 mg once daily, grade 4 maximum intensity).
The “patients with adverse events” was 0% (refers to: chest discomfort; 30 mg once daily, grade 1 maximum intensity).
For refers to: neutrophil count increased; dose not given, grade 5 maximum intensity, all arms: “patients with adverse events” read 0%.
For refers to: back pain; 60 mg once daily, grade 1 maximum intensity: “patients with adverse events” read 0%.
For refers to: respiratory tract infection; 30 mg once daily, grade 5 maximum intensity: “patients with adverse events” read 0%.
refers to: bile acids increased; 60 mg once daily, grade 2 maximum intensity — “patients with adverse events”: 0%.
It gave 0% for “patients with adverse events” (refers to: back pain; dose not given, grade 3 maximum intensity, all arms).

Block 3
Target: Calcium/calmodulin-dependent protein kinase type II subunit alpha (CAMK2A, Homo sapiens, UniProt Q9UQM7)
UniProt Q9UQM7, sequence (whole entry, looked up): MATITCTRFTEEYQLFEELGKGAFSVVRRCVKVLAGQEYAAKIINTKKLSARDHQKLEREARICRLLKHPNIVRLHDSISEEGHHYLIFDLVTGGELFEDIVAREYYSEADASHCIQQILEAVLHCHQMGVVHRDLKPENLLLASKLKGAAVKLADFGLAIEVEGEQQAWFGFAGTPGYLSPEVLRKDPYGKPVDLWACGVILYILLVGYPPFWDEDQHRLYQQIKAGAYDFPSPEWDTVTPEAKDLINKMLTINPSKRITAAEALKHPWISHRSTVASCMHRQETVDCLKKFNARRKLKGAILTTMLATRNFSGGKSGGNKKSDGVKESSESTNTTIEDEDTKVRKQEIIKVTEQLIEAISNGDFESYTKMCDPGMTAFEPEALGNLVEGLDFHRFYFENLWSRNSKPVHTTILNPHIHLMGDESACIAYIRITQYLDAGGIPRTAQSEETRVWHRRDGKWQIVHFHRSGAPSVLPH
Read-out: enzyme activity
Action: inhibitor
Concentration: 10 µM
`CCCC(=O)Nc1ccc(OCC(O)CNC(C)C)c(C(C)=O)c1` (stereo not shown) gave an inhibition of 1%.
The inhibition of `C[C@@H](O)CO` is reported as -20%.
With `CC(/C=C/C=C(\C)C(=O)OC1OC(COC2OC(CO)C(O)C(O)C2O)C(O)C(O)C1O)=C\C=C\C=C(C)\C=C\C=C(/C)C(=O)OC1OC(COC2OC(CO)C(O)C(O)C2O)C(O)C(O)C1O` (stereo not shown) the inhibition was -23%.
With `COc1cc([C@H]2OC[C@H]3[C@@H]2CO[C@@H]3c2ccc(O)c(OC)c2)ccc1O` the inhibition was 18%.
The inhibition of `COC(=O)/C=C/C(=O)OCCN1C(=O)CCC1=O` is reported as -8%.
With `COc1cc(O)c(C(=O)/C=C/c2ccccc2)c(OC)c1` the inhibition was 0%.
`O=c1c(O[C@@H]2O[C@@H](CO)[C@H](O)[C@H]2O)c(-c2ccc(O)c(O)c2)oc2cc(O)cc(O)c12` has an inhibition of -10%.
The inhibition of `CC(=O)O[C@]12CCC(C)=CC[C@]13CC[C@H]2[C@@](C)(/C=C/C=C(\C)C(=O)O)OC3=O` is reported as -4%.
`CC(C)=CCOc1ccc2ccc(=O)oc2c1` has an inhibition of -4%.
`CCOC(=O)/C=C/c1ccc(O)c(O)c1` gave an inhibition of -40%.

Further values, each from its own experiment
For `O=C(c1ccc(F)cc1)N1CC(COc2ccc(Br)cc2)(C(=O)O)C1`, the Ki was over 10 µM (Histamine H4 receptor (HRH4, Homo sapiens, UniProt Q9H3N8); binding, radioligand binding).

Some of these lines once more (block 3):
With `COc1cc([C@H]2OC[C@H]3[C@@H]2CO[C@@H]3c2ccc(O)c(OC)c2)ccc1O` the inhibition was 18%.
With `COc1cc(O)c(C(=O)/C=C/c2ccccc2)c(OC)c1` the inhibition was 0%.
`CC(C)=CCOc1ccc2ccc(=O)oc2c1` has an inhibition of -4%.
